# Results pooled from the literature.
# Parts stem from different laboratories: compare values within a part only.

# Series 1 — technique: RNA Bind-n-Seq; molecule type: RNA; sample: in vitro; tested at: 100 nM; baseline: input RNA pool; reading: higher = stronger binding
# Target: RING finger protein unkempt homolog, zinc fingers 1-6, SBP tag (UNK, Homo sapiens, UniProt Q9C0B0, residues 30-357)
# UniProt Q9C0B0, sequence (30-357, looked up): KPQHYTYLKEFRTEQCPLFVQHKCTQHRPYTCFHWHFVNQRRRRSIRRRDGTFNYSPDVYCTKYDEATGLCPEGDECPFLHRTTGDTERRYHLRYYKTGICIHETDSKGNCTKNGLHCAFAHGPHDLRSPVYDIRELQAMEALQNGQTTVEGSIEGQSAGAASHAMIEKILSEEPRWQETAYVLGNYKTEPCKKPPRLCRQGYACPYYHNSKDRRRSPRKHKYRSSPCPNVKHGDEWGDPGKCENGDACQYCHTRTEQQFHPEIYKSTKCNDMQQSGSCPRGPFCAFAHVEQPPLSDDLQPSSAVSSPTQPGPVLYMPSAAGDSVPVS
# Notes: RNA with constant flanks, vertebrate orthologous sites, ends assumed
Strand,bound/input enrichment
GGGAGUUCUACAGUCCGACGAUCAGGGACGCUUUGAUGUAAAAAUUGAAGUUAAGAGCUGAUCACAAGCACAAAUCUUUCCCACUAGCCAUUUAAAAAGUUAAAAAAGAUACAAAAACAAAAACCUACUAGUCUUGAAUAAACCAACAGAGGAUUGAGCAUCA,1.69 ratio
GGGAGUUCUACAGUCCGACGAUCCCUUAACUAGAGGUAGUAUAUGUUUCAUAAAGAGGAGUCUUUUUAAUUUUGUUUGUCAUAUAGUAUUUUGGAAUUUGUAUAAUGAGAAUGUUUAGAAGCCAUAUCAAUGGCUUUUUUUAACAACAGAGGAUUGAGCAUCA,0.992 ratio
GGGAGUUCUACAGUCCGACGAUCAUCUCUCAUUUUAUAUGUCCAAAAAUGGCUUUGACUUUUUAAGCAAUUGCUAGUUUUAAUUAGCUCUGCCCUCGUGAGGACUUAUUAUAGUUCACCACAAACCGAUAACUGUCUGAAUUACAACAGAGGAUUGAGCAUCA,0.521 ratio
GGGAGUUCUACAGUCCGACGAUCAGAAAAUUUUAACCAAGAAUCUGAAGGUAGAAAUACAGGACCGUGGUUAUCUUCCUCACUUAGAAAUAGAUGCACACCUUUGUUCUCCAGAAGGAGACGAGAGGGACGAGAUGAAUCUUCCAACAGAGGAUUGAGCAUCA,0.526 ratio
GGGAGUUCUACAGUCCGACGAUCAAAUUUAUUUCAUGCCCUGGACUCCUUAUCGUACUGAUACUUUAAUAGAAUAUGCUUCUUUGGAAGAUUUCCAAAACAGUCGCCAAACAACUACAUAUAAACUGCCAAAUCGAGUUGAUGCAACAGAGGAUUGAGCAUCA,0.853 ratio
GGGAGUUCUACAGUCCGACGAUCCCUACAAUAAUGAAAACCUACAGGAAUUUUUUUAUUUUUCAUUUUCCCCUUAAGUAUAUUUAGUAUUUUUCCCCCAGGCAGAUCAUUCUGAGUGUGCGAGUGUGUGUGCACAUGUUACAACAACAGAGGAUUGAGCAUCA,2.83 ratio
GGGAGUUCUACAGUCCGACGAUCAAUAGUUUUAAGCUUGUUUGCACAGCUUUUUUUUUCCAUUGGAAAUGGAAUCCAUUGCCUUAGGUCUUUUUAAUAGUGUAUUGUUAUUGUUGGGCUGGCUCUACGCUUGAAAACCAGUUUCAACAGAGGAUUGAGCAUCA,1.95 ratio
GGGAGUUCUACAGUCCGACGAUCGUUCAAACCUGUGGUACCUUGGCCUCAUGUUGAAGGCGUGGAAGUGGACUUGGAAUCCAUUCGAAGGAAAAAUAAGGCCAAAAAUGAACUAAAUCAGCAUGGUGGUGGUGAUAACAAUCACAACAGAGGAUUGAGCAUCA,0.46 ratio

# Series 2 — technique: protein-binding microarray; molecule type: double-stranded DNA, one strand shown; sample: in vitro; tested at: not given; reading: higher = stronger binding
# Target: Protein max, full length (MAX, Homo sapiens, UniProt P61244-2, residues 1-151)
# Notes: k-mer, scored over probes, only values ≥0.25
Strand,E-score
CACGAGCG,0.35
CAGCCACG,0.346
ATATGGCA,0.265
CGTGGTCA,0.398
CAGCGTGC,0.453
GTGGCGCA,0.355
GCACGCCA,0.357
GAACCCAC,0.273

# Series 3 — technique: protein-binding microarray; molecule type: double-stranded DNA, one strand shown; sample: in vitro; tested at: 2540 nM top; notes: 60-bp whole probe; added: salmon DNA 0.4 mg/ml; baseline: random background probes; reading: higher = stronger binding; shared flanks, not repeated: GCCTAGCAC … GTCTTGATTCGCTTGACGCTGCTG
# Target: Interferon regulatory factor 3, full length, phosphomimetic (IRF3, Homo sapiens, UniProt Q14653, residues 1-427, S386D/S396D/S398D/S402D/T404D/S405D)
# Residues (chain): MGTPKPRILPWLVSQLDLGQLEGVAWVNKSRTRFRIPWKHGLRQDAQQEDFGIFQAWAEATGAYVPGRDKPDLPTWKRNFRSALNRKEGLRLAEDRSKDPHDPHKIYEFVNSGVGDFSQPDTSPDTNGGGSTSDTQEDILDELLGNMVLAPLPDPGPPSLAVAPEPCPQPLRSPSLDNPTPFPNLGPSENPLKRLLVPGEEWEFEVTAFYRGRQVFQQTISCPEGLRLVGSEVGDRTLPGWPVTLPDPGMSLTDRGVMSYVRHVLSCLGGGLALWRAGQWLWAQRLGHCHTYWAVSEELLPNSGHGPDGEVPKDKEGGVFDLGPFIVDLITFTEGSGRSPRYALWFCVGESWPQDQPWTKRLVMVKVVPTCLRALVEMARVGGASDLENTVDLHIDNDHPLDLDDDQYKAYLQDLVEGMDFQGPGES
Strand,fitted relative affinity [z-score]
ATTTAAAACAACTTTCAAAGGGTGCTA,0.603
TTAGGTATCAGTATCGGTTAGTGCTAG,4.64
AACGATATCAGTCTCGAGACGTGCTAG,1.13
TTAGATAGCAGTATCGATTAGTGCTAG,0.509
TCACGTCTGGGTGTTTTACTGTGCTAG,-0.531
TATGTTCCCTATTTAAGACCGTGCTAG,3.54
GCCGGTTTCCTTTTCCTGACGTGCTAG,11.1
GACGATATCGGGTTTCGAGGCGTGCTA,0.812

# Further values, each from its own experiment
Molecule,target,read-out,molecule type,tested at,quantity,result
YYNAFQWAI,"HLA class I histocompatibility antigen, C alpha chain, allele C*04:01 (Homo sapiens, UniProt P10321)",peptide-MHC binding,peptide,concentration not given,binding,inactive

# A few entries again (series 2):
Strand,E-score
GTGGCGCA,0.355
GAACCCAC,0.273
